Assay results collected from several papers.
Lines come from different studies, so protocols differ. ± marks the error that the study gave. Converted amounts (≈) assume the structure as drawn.
Chain of UniProt Q16620 (whole entry, looked up): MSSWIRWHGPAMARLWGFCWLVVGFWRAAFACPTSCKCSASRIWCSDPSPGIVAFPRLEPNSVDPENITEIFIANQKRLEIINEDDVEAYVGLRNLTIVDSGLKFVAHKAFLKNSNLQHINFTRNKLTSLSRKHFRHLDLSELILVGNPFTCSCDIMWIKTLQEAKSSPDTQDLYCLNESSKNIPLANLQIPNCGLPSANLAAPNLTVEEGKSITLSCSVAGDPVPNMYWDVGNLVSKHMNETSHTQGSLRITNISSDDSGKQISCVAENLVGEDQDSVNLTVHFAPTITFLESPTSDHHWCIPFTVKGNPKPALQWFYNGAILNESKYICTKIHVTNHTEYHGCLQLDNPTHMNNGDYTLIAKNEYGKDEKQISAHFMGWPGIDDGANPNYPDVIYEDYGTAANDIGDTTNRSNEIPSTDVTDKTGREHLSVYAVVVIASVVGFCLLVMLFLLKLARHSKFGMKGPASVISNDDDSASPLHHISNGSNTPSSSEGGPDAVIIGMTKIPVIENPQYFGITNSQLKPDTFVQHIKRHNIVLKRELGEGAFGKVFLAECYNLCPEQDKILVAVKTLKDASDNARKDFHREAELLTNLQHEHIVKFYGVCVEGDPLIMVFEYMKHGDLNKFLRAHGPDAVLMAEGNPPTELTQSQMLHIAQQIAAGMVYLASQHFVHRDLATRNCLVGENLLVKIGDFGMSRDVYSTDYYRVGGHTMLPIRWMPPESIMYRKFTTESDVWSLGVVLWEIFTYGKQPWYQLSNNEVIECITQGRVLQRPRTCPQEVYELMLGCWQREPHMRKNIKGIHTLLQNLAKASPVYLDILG
Chain of UniProt Q62968 (whole entry, looked up): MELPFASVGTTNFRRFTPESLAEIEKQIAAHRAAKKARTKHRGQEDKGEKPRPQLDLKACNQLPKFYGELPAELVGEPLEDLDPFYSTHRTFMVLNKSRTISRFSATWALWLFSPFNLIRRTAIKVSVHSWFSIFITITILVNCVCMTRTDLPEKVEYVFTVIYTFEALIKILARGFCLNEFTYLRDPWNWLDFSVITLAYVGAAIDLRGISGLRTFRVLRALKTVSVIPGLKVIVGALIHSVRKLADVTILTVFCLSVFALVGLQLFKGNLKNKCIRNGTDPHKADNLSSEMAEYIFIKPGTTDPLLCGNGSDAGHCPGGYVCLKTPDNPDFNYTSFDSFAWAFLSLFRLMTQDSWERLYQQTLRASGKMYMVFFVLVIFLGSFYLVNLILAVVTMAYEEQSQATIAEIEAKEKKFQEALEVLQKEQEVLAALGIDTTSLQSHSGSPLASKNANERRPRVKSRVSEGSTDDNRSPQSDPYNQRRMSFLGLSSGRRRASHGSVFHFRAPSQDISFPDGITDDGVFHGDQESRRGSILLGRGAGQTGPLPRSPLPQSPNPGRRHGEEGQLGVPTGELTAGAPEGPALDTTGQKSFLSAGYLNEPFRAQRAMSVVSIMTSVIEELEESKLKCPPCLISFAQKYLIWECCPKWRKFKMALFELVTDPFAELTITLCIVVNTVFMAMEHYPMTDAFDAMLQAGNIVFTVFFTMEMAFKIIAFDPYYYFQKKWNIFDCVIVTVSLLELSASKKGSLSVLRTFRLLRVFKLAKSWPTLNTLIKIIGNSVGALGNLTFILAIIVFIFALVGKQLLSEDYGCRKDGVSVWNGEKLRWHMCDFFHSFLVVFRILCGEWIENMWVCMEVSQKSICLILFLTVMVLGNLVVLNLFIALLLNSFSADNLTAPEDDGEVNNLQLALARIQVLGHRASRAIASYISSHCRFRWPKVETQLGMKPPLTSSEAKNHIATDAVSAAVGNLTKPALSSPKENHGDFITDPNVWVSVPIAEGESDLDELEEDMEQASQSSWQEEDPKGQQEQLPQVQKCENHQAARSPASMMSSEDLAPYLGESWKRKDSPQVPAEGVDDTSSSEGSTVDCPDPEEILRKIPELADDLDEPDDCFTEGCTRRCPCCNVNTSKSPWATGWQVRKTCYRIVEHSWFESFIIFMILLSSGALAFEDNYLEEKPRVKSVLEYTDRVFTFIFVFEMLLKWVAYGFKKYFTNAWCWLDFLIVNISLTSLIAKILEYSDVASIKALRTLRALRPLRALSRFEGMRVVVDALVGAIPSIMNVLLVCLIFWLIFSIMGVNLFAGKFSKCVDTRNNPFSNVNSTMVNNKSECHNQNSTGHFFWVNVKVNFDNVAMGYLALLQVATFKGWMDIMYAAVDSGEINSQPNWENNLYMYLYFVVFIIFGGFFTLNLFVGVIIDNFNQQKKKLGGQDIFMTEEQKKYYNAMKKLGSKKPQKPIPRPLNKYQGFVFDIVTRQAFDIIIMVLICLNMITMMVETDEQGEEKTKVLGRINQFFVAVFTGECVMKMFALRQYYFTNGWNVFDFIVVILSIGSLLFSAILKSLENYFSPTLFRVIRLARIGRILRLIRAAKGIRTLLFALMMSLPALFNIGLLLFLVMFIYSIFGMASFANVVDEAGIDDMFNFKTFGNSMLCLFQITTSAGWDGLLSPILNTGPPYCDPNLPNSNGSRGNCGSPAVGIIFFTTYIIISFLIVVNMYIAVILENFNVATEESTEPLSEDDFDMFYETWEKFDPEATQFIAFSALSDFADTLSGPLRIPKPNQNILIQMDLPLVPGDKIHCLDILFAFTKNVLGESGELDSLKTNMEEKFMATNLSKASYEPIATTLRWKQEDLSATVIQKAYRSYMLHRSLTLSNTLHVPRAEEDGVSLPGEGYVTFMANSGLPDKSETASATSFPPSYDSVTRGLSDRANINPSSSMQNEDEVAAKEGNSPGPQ

C/C=C/c1ccc(OC(C)=O)c(OC)c1 — antifeedant index (Spodoptera frugiperda; larvae; 250 µg/mL; reference: untreated control): 54.5%
CC[C@@H](N[C@@H](C)CC(N)=O)c1ccc(Cl)c(Oc2ccccc2)c1F — EC50 fold change (Hepatitis C virus; viral replication, luciferase; Huh-7, V630L mutant replicon; reference: wild type replicon): 30 fold
Cc1nc2c(cnn2C(C)C)cc1C(=O)NCc1ccc(C(C)O)c(C)n1 (stereo not shown) — median survival (Drosophila melanogaster; APP transgenic (Alzheimer model); in food, 100 µM, 72 h, from adult day 3): 37 days
CCCCCCCCCCCCCC(=O)N[C@H](CCN)C(=O)N[C@H](C(=O)N[C@@H](CCN)C(=O)N[C@@H](CC(C)C)C(=O)N[C@@H](CCN)C(=O)N[C@H](Cc1ccccc1)C(=O)N[C@@H](CC(C)C)C(=O)N[C@@H](CCN)C(=O)N[C@H](Cc1ccc(O)cc1)C(=O)N[C@H](C(=O)N[C@@H](CC(=O)O)C(=O)O)C(C)C)[C@@H](C)O — MIC fold change with serum (ESKAPE pathogens; concentration not given; reference: MIC with serum over without): 8 fold
CC(=O)O[C@H]1C[C@@H](C)O[C@H]2O[C@@H]3C[C@@H]4CC[C@@H]5[C@H](CC[C@]6(C)[C@@H](C7=CC(=O)OC7)CC[C@]56O)[C@@]4(C)C[C@H]3O[C@]21O — viability effect (Schistosoma mansoni; microscopic viability score; adult worms; 0.1 µM, 72 h): 29%
CC(C)C[C@@H]1NC(=O)[C@H](CCCCN)NC(=O)[C@H](C(C)C)NC(=O)[C@@H]2CCCN2C(=O)[C@@H](Cc2ccc(O)cc2)NC(=O)[C@H](CC(C)C)NC(=O)[C@H](CCCCN)NC(=O)[C@H](C(C)C)NC(=O)[C@H](CCCCN)NC(=O)[C@@H]2CCCN2C(=O)[C@@H](Cc2ccc(O)cc2)NC1=O — MIC geometric mean (Gram-negative bacteria; 24 h, 7 strains): 70.7 mg/L (≈ 53.2 µM)
N=C(N)NCCC[C@@H]1NC(=O)[C@H](CCCCNC(=O)CNC(=O)CNC(=O)CNC(=O)CC[C@H](NC(=O)CCOCCOCCOCCOCCNC(=O)CC[C@H](NC(=O)CN2CCN(CC(=O)O)CCN(CC(=O)O)CCN(CC(=O)O)CC2)C(=O)NCCOCCOCCOCCOCCC(=O)N[C@@H](CCC(=O)NCC(=O)NCC(=O)NCC(=O)NCCCC[C@@H]2NC(=O)[C@@H](Cc3ccccc3)NC(=O)[C@H](CC(=O)O)NC(=O)CNC(=O)[C@H](CCCNC(=N)N)NC2=O)C(=O)NCC(=O)NCC(=O)NCC(=O)NCCCC[C@@H]2NC(=O)[C@@H](Cc3ccccc3)NC(=O)[C@H](CC(=O)O)NC(=O)CNC(=O)[C@H](CCCNC(=N)N)NC2=O)C(=O)NCC(=O)NCC(=O)NCC(=O)NCCCC[C@@H]2NC(=O)[C@@H](Cc3ccccc3)NC(=O)[C@H](CC(=O)O)NC(=O)CNC(=O)[C@H](CCCNC(=N)N)NC2=O)NC(=O)[C@@H](Cc2ccccc2)NC(=O)[C@H](CC(=O)O)NC(=O)CNC1=O [indium-111 labelled] — tumour to tissue ratio (athymic nude mice, female, U-87 MG glioma xenograft, tumour and kidney; intravenous, 24 h; reference: tumour over kidney): 2.96 ± 0.36
CC(=O)N[C@H](CCCCN)C(=O)N[C@H](CC(C)C)C(=O)N[C@H](CCCCN)C(=O)N[C@H](CO)C(=O)N[C@H](CC(C)C)C(=O)N[C@H](CC(C)C)C(=O)N[C@H](CCCCN)C(=O)N[C@@H](C(=O)N[C@H](CC(C)C)C(=O)N[C@H](CO)C(=O)N[C@H](CCCCN)C(=O)N[C@H](C)C(=O)N[C@H](CCCCN)C(=O)N[C@H](CCCCN)C(=O)N[C@H](CCCCN)C(=O)N[C@H](CC(C)C)C(=O)N[C@H](CC(C)C)C(=O)N[C@H](CCCCN)C(=O)N[C@@H](C(=O)N[C@H](C)C(=O)N[C@H](CC(C)C)C(=O)N[C@H](CCCCN)C(=O)N[C@H](C)C(=O)N[C@H](CC(C)C)C(=O)N[C@H](CO)C(=O)N[C@H](CCCCN)C(N)=O)[C@H](C)O)[C@H](C)O — therapeutic index (Acinetobacter baumannii; 11 isolates; reference: HC50 over geometric mean MIC): 339
CC(C)C[C@H](NC(=O)[C@H](Cc1c[nH]c2ccccc12)NC(=O)[C@@H]1CCCN1C(=O)[C@@H](NC(=O)[C@H](CCCNC(=N)N)NC(=O)[C@@H]1CCCN1C(=O)[C@H](CCC(N)=O)NC(=O)[C@@H]1CCCN1C(=O)[C@H](CCCNC(=N)N)NC(=O)[C@@H]1CCCN1C(=O)[C@H](Cc1ccccc1)NC(=O)[C@H](Cc1ccccc1)NC(=O)[C@H](CCC(N)=O)NC(=O)[C@H](CCCNC(=N)N)NC(=O)[C@@H]1CCCN1C(=O)[C@H](CC(C)C)NC(=O)[C@H](CCCNC(=N)N)NC(=O)[C@H](CCCNC(=N)N)NC(=O)[C@H](CC(C)C)NC(=O)[C@@H](NC(=O)[C@H](CCCNC(=N)N)NC(=O)[C@H](CCC(N)=O)NC(=O)[C@@H](N)Cc1ccc(O)cc1)C(C)C)[C@@H](C)O)C(=O)O — antibacterial activity (Gram-negative bacteria; MIC; concentration not given): active
CN[C@](C)(C[18F])C(=O)O — tracer uptake (MDA-MB-468 tumour model; host not given, pancreas; 1 h, tumour-bearing): 25 %ID/g
N=C(N)NCCC[C@@H]1NC(=O)[C@H](CCCCNC(=O)CCOCCOCCOCCOCCNC(=O)CN2CCN(CC(=O)O)CCN(CC(=O)O)CCN(CC(=O)O)CC2)NC(=O)[C@@H](Cc2ccccc2)NC(=O)[C@H](CC(=O)O)NC(=O)CNC1=O [indium-111 labelled] — tumour to tissue ratio (athymic nude mice, female, U-87 MG glioma xenograft, tumour and kidney; intravenous, 1 h; reference: tumour over kidney): 0.65 ± 0.1
C=CCc1ccc(OCC(=C)C)c(OC)c1 — antifeedant index (Spodoptera frugiperda; larvae; 25 µg/mL; reference: untreated control): 11%
CC(=O)CCC1C(=O)NC(C(C)C)C(=O)NC(Cc2cc(O)cc(F)c2)C(=O)N2CCCC(N2)C(=O)OC(C(C)=CC=CC(=O)N2CCCCO2)CC=CC=CC(O)C(C)C1O (stereo not shown) — fold resistance (Hepatitis C virus; viral replication, inhibitor; HCV replicon cells, L27I/R318W/D320E/S370P/C446S; reference: wild-type replicon): ~4 fold
O=C(Cn1ccc(=O)c2ccccc21)N/N=C/c1cc(Br)c(O)c(Br)c1 — inhibition (Botrytis cinerea; microbial growth; 50 µg/mL): 25%
CCCCCCCCC(=O)NCc1ccc(O)c(OC)c1 — IC50 (mAb 6-AT6; antibody binding, indirect competitive ELISA; added: coating antigen 1-OVA): > 4 mg/L
CCC1c2cc(OC)c(O)cc2C(c2ccc(O)c(OC)c2)C1C (stereo not shown) — antifeedant index (Spodoptera frugiperda; larvae; 100 µg/mL; reference: untreated control): 11.6%
CN(Cc1cc(C2CC2)on1)C(=O)c1cccc(-c2ccc3c(c2)CCO3)c1 — MIC ratio (Cryptococcus neoformans; reference: H99 over acl1∆ mutant): 8 fold
CC[C@H](C)[C@H](NC(=O)[C@H](CCCCN)NC(=O)[C@H](CCCCN)NC(=O)[C@H](CC(C)C)NC(=O)[C@H](CCCCN)NC(=O)[C@H](CCC(=O)O)NC(=O)[C@H](CCCCN)NC(=O)[C@@H](NC(=O)[C@H](CCCCN)NC(=O)[C@H](CC(N)=O)NC(=O)[C@H](CCCNC(=N)N)NC(=O)[C@H](Cc1ccccc1)NC(=O)[C@H](CCCCN)NC(=O)[C@H](CCCNC(=N)N)NC(=O)[C@H](CC(C)C)NC(=O)[C@H](CCCNC(=N)N)NC(=O)[C@H](CCCCN)NC(=O)[C@H](CCCNC(=N)N)NC(=O)[C@@H](N)CC(C)C)[C@@H](C)CC)C(=O)NCC(=O)N[C@@H](CCC(N)=O)C(=O)N[C@@H](CCCCN)C(=O)N[C@H](C(=O)N[C@@H](CCC(N)=O)C(=O)NCC(=O)N[C@@H](Cc1ccccc1)C(=O)N[C@H](C(=O)N1CCC[C@H]1C(=O)N[C@@H](CCCCN)C(=O)N[C@@H](CC(C)C)C(=O)O)C(C)C)[C@@H](C)CC — lethal concentration (Alcaligenes faecalis; inhibition zone; CGMCC 1.184): 1.92 µM
CC(=O)NC(Cc1ccc(Br)c(Cl)c1)C(=O)N[C@@H](C)C(=O)N1CCC[C@H]1C(=O)N1CCC[C@H]1C(=O)N[C@@H](CCC(=O)O)C(=O)N[C@@H](Cc1c[nH]cn1)C(=O)N[C@@H](CO)C(=O)N[C@H](C(=O)N[C@@H](C)C(N)=O)[C@@H](C)OP(=O)(O)O (stereo partly shown) — inhibition (BDNF/NT-3 growth factors receptor (NTRK2, Homo sapiens, UniProt Q16620); cell-free assay, inhibitor; 10 µM): 2.24%
CCCC[C@H](NC(=O)CNC(=O)CNC(=O)c1ccc(NN)nc1)C(=O)N[C@H]1CC(=O)NCCCC[C@@H](C(N)=O)NC(=O)[C@H](Cc2c[nH]c3ccccc23)NC(=O)[C@H](CCCNC(=N)N)NC(=O)[C@@H](Cc2ccccc2)NC(=O)[C@H](Cc2c[nH]cn2)NC1=O [technetium-99m labelled] — uptake (C57 mouse, B16/F1 melanoma, intestines; intravenous, 0.5 h): 1.41 ± 0.14 %ID
CC[C@H](C)[C@H](NC(=O)[C@H](CCCCN)NC(=O)[C@H](CCCCN)NC(=O)[C@H](CC(C)C)NC(=O)[C@H](CCCCN)NC(=O)[C@H](CCC(=O)O)NC(=O)[C@H](CCCCN)NC(=O)[C@@H](NC(=O)[C@H](CCCCN)NC(=O)[C@H](CC(N)=O)NC(=O)[C@H](CCCNC(=N)N)NC(=O)[C@H](Cc1ccccc1)NC(=O)[C@H](CCCCN)NC(=O)[C@H](CCCNC(=N)N)NC(=O)[C@H](CC(C)C)NC(=O)[C@H](CCCNC(=N)N)NC(=O)[C@H](CCCCN)NC(=O)[C@H](CCCNC(=N)N)NC(=O)[C@H](CC(C)C)NC(=O)[C@@H](N)CCCNC(=N)N)[C@@H](C)CC)C(=O)NCC(=O)N[C@@H](CCC(N)=O)C(=O)N[C@@H](CCCCN)C(=O)N[C@H](C(=O)N[C@@H](CCC(N)=O)C(=O)NCC(=O)N[C@@H](Cc1ccccc1)C(=O)N[C@H](C(=O)N1CCC[C@H]1C(=O)N[C@@H](CCCCN)C(=O)N[C@@H](CC(C)C)C(=O)N[C@@H](CCC(N)=O)C(=O)N1CCC[C@H]1C(=O)N[C@@H](CO)C(=O)N[C@@H](CCCCN)C(=O)N[C@@H](CCC(N)=O)C(=O)N[C@@H](CO)C(=O)O)C(C)C)[C@@H](C)CC — lethal concentration (Alcaligenes faecalis; inhibition zone; CGMCC 1.184): 2.65 µM
CCN(Cc1ccccc1)C(=O)CCc1nc(CN2CCN(C(=O)Cc3ccc(OC)c(OC)c3)CC2)no1 — activation curve shift (Sodium channel protein type 10 subunit alpha (Scn10a, Rattus norvegicus, UniProt Q62968); sodium current, whole-cell patch clamp; rat DRG neurons; 10 µM; reference: control, towards hyperpolarisation): 3.53 mV
C=C(C)[C@@H]1CCC=C2CC[C@]3(C)[C@H](CC[C@@H]4[C@@]5(C)CCCNC(C)(C)[C@@H]5CC[C@]43C)[C@H]21 — selectivity index (Human alphaherpesvirus 1; HFF, E-377; reference: CC50 over EC50): < 2
Cc1cc(N2CCC(C#N)(C3(C)CC3)C2=O)cc(C(=O)NCc2cc(F)cc(-c3cnn(C)c3)c2)n1 (racemic) — minimum inoculum for resistance (Plasmodium falciparum; added: selection pressure 3 × IC50): 800000 parasites
CON(C(=O)c1cn(C)nc1C(F)F)C(C)Cc1c(Cl)cc(Cl)cc1Cl (stereo not shown) — inhibition (Ustilaginoidea virens; microbial growth; 1.56 µg/mL): 100%

Excerpt of the above:
N=C(N)NCCC[C@@H]1NC(=O)[C@H](CCCCNC(=O)CCOCCOCCOCCOCCNC(=O)CN2CCN(CC(=O)O)CCN(CC(=O)O)CCN(CC(=O)O)CC2)NC(=O)[C@@H](Cc2ccccc2)NC(=O)[C@H](CC(=O)O)NC(=O)CNC1=O [indium-111 labelled] — tumour to tissue ratio (athymic nude mice, female, U-87 MG glioma xenograft, tumour and kidney; intravenous, 1 h; reference: tumour over kidney): 0.65 ± 0.1
C=CCc1ccc(OCC(=C)C)c(OC)c1 — antifeedant index (Spodoptera frugiperda; larvae; 25 µg/mL; reference: untreated control): 11%
CC(=O)CCC1C(=O)NC(C(C)C)C(=O)NC(Cc2cc(O)cc(F)c2)C(=O)N2CCCC(N2)C(=O)OC(C(C)=CC=CC(=O)N2CCCCO2)CC=CC=CC(O)C(C)C1O (stereo not shown) — fold resistance (Hepatitis C virus; viral replication, inhibitor; HCV replicon cells, L27I/R318W/D320E/S370P/C446S; reference: wild-type replicon): ~4 fold
O=C(Cn1ccc(=O)c2ccccc21)N/N=C/c1cc(Br)c(O)c(Br)c1 — inhibition (Botrytis cinerea; microbial growth; 50 µg/mL): 25%
